Assay results of several laboratories.
Compare with care: the assays were run in different laboratories. Several values in a cell are separate wells, animals, samples, runs or records.
Target: MAP kinase-activated protein kinase 5 (MAPKAPK5, Homo sapiens, UniProt Q8IW41)
One construct used (Q8IW41 1-473): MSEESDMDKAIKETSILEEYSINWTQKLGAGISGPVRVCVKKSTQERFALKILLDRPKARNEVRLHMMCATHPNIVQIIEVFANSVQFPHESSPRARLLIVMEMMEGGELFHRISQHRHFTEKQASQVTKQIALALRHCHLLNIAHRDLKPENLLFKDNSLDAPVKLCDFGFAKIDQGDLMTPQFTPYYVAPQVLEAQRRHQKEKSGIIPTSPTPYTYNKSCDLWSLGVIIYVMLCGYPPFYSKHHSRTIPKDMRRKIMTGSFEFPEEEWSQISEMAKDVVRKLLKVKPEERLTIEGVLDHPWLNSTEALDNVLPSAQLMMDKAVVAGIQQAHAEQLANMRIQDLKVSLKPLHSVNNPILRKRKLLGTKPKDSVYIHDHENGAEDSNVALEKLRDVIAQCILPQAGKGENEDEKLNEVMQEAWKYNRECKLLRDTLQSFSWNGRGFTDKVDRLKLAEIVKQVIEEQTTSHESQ

For Cc1ccc(-c2c(/C=C(\C#N)C(=O)NC(C)C)n(CCCO)c3ncnc(N)c23)cc1, the remaining binding was 100% (cell-free assay, competition with immobilised ligand; 1 µM).
For NC(=O)C[C@H]1CCc2sc3ncnc(O[C@H]4CC[C@H](N5CCOCC5)CC4)c3c21, the inhibition was 1% (enzyme activity, inhibitor; 10 µM).
The remaining activity of O=C=[N][Ru-4]123([n]4c5ccc(O)cc5c5c6c(c7cc(F)c[n+]1c7c54)C(=O)NC6=O)[S+]1CC[S+]2CC[S+]3CC1 (stereo not shown) is reported as 86% (enzyme activity; 100 nM, human enzyme, together with: 10 µM ATP; reference: untreated).
The inhibition of Cc1cccc(O[C@H]2CCC[C@@H](C(C)CNCc3ccncc3)C2)c1 (relative stereo) is reported as 2% (enzyme activity, inhibitor; 10 µM).
O=c1c(-c2ccc(Cl)c(CN3CCOCC3)c2)coc2cc(O)ccc12 gave a remaining activity of 106% (enzyme activity, inhibitor; 1 µM).
With Cc1ccc(C)c(-c2ccc3nc(NC(=O)C4CCCCC4)nn3c2)c1 the remaining activity was 63% (enzyme activity, Dundee kinase panel; 10 µM).
Cc1nc2c(F)cc(-c3nc(Nc4ccc(CNC(=O)CCCCCCC(=O)NO)cc4)ncc3F)cc2n1C(C)C has an inhibition of 17% (enzyme activity, inhibitor; 1 µM).
With C=CC(=O)Nc1cccc(-c2cnc3[nH]cc(C(=O)NC(C)(C)C)c3n2)c1 the inhibition was 5% and 4% (kinase activity; 0.1 µM).
The remaining activity of COc1cc(Nc2nc(C)cc(-c3cnn4nc(OC)ccc34)n2)cc(C(F)(F)F)c1 is reported as 82% (inhibitor; 1 µM; reference: control).
The remaining binding of CCN1CCN(Cc2ccc(C(=O)Nc3ccc(C)c(NCc4cnc5[nH]ccc5c4OC)c3)cc2C(F)(F)F)CC1 is reported as 100% (binding, competition with immobilised ligand; 1 µM).
For CNC(=O)C1CCN(c2cc(C)c(F)cc2NC(=O)c2ccc(-c3cc(O)ccc3C)c(C)c2)CC1, the remaining binding was 60% (binding, competition with immobilised ligand; 1 µM).
CN1CCN(Cc2ccc(-c3ccc(CO[C@H]4CCC[C@@H]4NC(=O)c4cc(-c5cnn(C)c5)cnc4N)cc3)cc2)CC1 has an inhibition of 1% (enzyme activity, inhibitor; 0.1 µM).
O=C(Cc1ccc(OCc2ccccc2)cc1)NC1(C(=O)O)CCN(C(=O)c2ccc(-c3cccc(Cl)c3)cc2)CC1 — result for “activity vs control”: 134% (enzyme activity, inhibitor; 10 µM).

Some of these lines once more:
With Cc1ccc(C)c(-c2ccc3nc(NC(=O)C4CCCCC4)nn3c2)c1 the remaining activity was 63% (enzyme activity, Dundee kinase panel; 10 µM).
Cc1nc2c(F)cc(-c3nc(Nc4ccc(CNC(=O)CCCCCCC(=O)NO)cc4)ncc3F)cc2n1C(C)C has an inhibition of 17% (enzyme activity, inhibitor; 1 µM).
